Measurements collected from several papers.
Every numbered part comes from another study and shows a few of its results, in no order. Positions count from the first letter of the parent shown.

Study 1 — method: RNA Bind-n-Seq; molecule type: RNA; sample: in vitro; tested at: not given; setting: RNA with constant flanks, ends assumed; reference: input RNA pool; direction: higher = stronger binding; endpoint: bound/input enrichment
Target: RING finger protein unkempt homolog, zinc fingers 1-6, GST-SBP tag (UNK, Homo sapiens, UniProt Q9C0B0, residues 30-357)
Shared flanks, not repeated: GGGAGUUCUACAGUCCGACGAUC … CAACAGAGGAUUGAGCAUCA
Target sequence (chain): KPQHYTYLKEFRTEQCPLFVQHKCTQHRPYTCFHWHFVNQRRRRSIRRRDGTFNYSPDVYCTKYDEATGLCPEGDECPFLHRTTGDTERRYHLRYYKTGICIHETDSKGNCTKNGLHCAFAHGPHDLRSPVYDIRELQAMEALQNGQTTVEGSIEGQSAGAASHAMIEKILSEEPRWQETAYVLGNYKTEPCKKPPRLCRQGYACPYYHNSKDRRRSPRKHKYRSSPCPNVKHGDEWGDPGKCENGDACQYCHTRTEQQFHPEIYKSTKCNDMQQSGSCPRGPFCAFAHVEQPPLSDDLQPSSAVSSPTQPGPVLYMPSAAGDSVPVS
UCCAGAAUACACCAAAAAAAUAGAAAACCUAUGUGCUAUGGGCUUUGAUAGGAAUGCAGUAACCGUGGCCUUGUCUUCAAAAUCAUGGGAUGUAGAGACUGCAACAGAAUUGCUUCUGAG: 0.98 ratio
GAGGGUUGUGAUGUUUGGGGCUGGGAAUGUUUUUGGUAGAAUAAUGGUACAGCUUUUGGCCCGUUUCCUUGUCAAUUGCCAGUGCUGGGAGAAAGAAAUCCCAUGGAAACACAUACCAGU: 0.77 ratio
AAACAAGCCUUUGAAAGAUGUCAUAGGCUUUCUGAUCCUUCUGAUUUACCAAGGAAUGCCUUCCGAAUUUUUACCAUUCUUGUGGAAUUUUUAUGUAUUGAGCAUAUUGAUUAUGCUUUA: 0.075 ratio
GAGUUCCGUUCUGGAAAGGCACCCAUCCUUAUUGCUACAGAUGUAGCCUCCCGUGGGCCCGAUGUGGAAGAUGUCAAGUUUGUGAUCAACUAUGACUAUCCAAACAGCUCAGAGGAUUAU: 0.118 ratio
AUUCCGUUCAUUGAGACCUCAGCAAAGACAAGACAGGGUGUUGACGAUGCCUUCUAUACAUCCGUCCGAGAAAUUCGAAAACAUAAAGAAAAGAUGAGCAAAGAUGGGAAGAAGAAGAAG: 0.289 ratio
AGCCUGUGUGUAAAAUCCAGCUUGACUGCACCCCCCCUUUUUUGUUUCACUGUUUUCCCGUUCCGAAAUCUCAGAACUAACUAAUUUUACAGAACUUUUCUUAAUUUGCUCAUCAUGUUU: 2.05 ratio
GCUGCUCAGAUAAACGGUAAAACAGAAUCUAGUUCUGUGGUUCGAACCAGAAGCAACCGAGUGGUUGCCGAUCCAGUUGUCACUGAGCAACCAUCUACUUCUUCAGCUGCAAAGACUUUU: 0.103 ratio
UAUGUAUAUCUCAAGCAAACCAAAAUGCAAUCUUCUGCUUUGUUCUGUUCUAAAUCAUUGCCGUUAUAUCUUUCUGAAACCAUUUUGCAUUUAGUUGAAAUUGUCAGUAUUUAUGCUUUU: 0.194 ratio

Study 2 — method: RNA Bind-n-Seq; molecule type: RNA; sample: in vitro; tested at: 365 nM; reference: no-protein control; direction: higher = stronger binding; endpoint: RBNS enrichment (R)
Target: RNA binding protein fox-1 homolog 2, RRM domain, GST-SBP tag (RBFOX2, Homo sapiens, UniProt O43251-10, residues 100-194)
Setting: natural RNA segment, single round, ends assumed
Shared flanks, not repeated: GGGAGUUCUACAGUCCGACGAUC … UGGAAUUCUCGGGUGCCAA
Target sequence (chain): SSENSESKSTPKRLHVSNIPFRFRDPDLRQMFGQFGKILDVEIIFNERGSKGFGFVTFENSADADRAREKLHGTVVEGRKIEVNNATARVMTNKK
UAAUGGGCCUGAAAAAGUUUCUUCUUUGAUUAUGUAGUUACUCUAGAUACAUUCUUUUAGGGAAGUGUAUGGUCAACAUAUAUUUACUCAGUAUACAGAUAACCACAAAG: 0.322
CUGAGAUUUCCAGCUUUAUAACCAAAGCUUGAUAUAUGUCACAUUGUCACAGAAGAGAGAAAAGAUCAUUGAGGACAGUUGCCUUGGGAGAGUUCAAGUCUUUGUCGUUA: 0.659
GUAAAGCAGGCUAGAGUCUUAACCAUGGUGCUAUUCACUGGGUUUACUUGUUUAACACAAGUUUAUACCUGGUGUCAAUAAAACAAAUAUGUAUUUCUUGUCUACUAAGG: 0.549
GAGACUGGUUCUCCUGACCCCCACCCGAGAGCGAGAGCGCCAAGUGCAGGGCCUUGUGUUGUGUGGUUUUACUUGGGCUGGGGGUGGUUCUUGCGGUUUCUUCCAUUGCU: 1.61
AAAAAGUACAGCUGCUUGGAUGGAGUUUCUCUCAUCAGAAUAGAAAUAUGCUAGGUGGUCUUCAAGACCUUUUUGAACCUACAGAUUCUAAACCUUAGAGGAAGCCAGAA: 0.618
AAGCUUGAAUCUGUGUAGUCUCUGACCCUAAGUGAGAAUGACUUUGGUGUCAGGGUCCUGUGGAGUUGUGCCCCACACUGAGCUCUGUACAGUAUUGCUGCUCAUACACU: 0.413
UCUCUUUAGUACUUACGUAUUGGGAUUCCUGUGUCUUACAGCUCUCCCUCUCCAAAUAAUACACAGAAUCCUGCAACUUUUUGCACAGCUGGUAUCUGUCUGGUAGCAGU: 0.325
GAAACAAUACACCUUUAAACAGAUGUCAAGACCAAAGAUGAUGUAUAAUAAACAGCCGGUGGUUAUGGUGUGGUGUGAGCAGGCCCCCGGAUCACCAGCCCUCUGCUGGU: 0.52

Study 3 — method: DHFR PCA, deep sequencing; sample: yeast; together with: (+)-ABA 0.0091 µM; reference: wild-type fitted maximum; direction: higher = stronger binding; endpoint: relative binding score
Target: ABI1, truncated, D143A, DHFR fusion (Arabidopsis thaliana)
Setting: methotrexate growth selection, single substitutions
Starting sequence: PYL1, truncated, DHFR fusion (Arabidopsis thaliana); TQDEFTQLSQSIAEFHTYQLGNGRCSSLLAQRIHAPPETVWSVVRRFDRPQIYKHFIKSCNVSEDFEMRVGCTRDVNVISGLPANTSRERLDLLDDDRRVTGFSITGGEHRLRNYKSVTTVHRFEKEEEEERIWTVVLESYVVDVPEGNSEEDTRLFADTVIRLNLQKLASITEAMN; partner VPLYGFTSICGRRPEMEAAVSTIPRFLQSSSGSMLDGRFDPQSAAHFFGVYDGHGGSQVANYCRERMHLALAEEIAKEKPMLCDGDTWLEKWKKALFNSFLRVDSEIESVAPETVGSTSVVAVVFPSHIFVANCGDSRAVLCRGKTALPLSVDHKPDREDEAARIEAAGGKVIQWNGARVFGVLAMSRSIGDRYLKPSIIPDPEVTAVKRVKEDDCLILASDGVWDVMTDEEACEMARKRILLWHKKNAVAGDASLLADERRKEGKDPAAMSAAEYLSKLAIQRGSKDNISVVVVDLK
D3V: 7.03%
R74Y: -2.96%
V142H: 3.21%
E129D: 47.1%
S150E: 8.37%
L166P: 9.78%
L29F: -1.31%
E67F: 1.89%
P36V: -2.66%
V100L: -1.59%
V136E: -4.06%
F66Q: 5.19%
I12Q: -4.41%
H16Y: 1.21%
V76E: -3.17%

Study 4 — method: RNA Bind-n-Seq; molecule type: RNA; sample: in vitro; tested at: 200 nM; setting: whole 134-nt RNA, ends assumed; together with: 150 mM LiCl; reference: input library; direction: higher = stronger binding; endpoint: log2 enrichment; each molecule: 7-deaza-guanosine replaces G
Target: Fragile X messenger ribonucleoprotein 1, C-terminal low-complexity region (Fmr1, Mus musculus, UniProt P35922)
Shared flanks, not repeated: GGGAGUUCUACAGUCCGACGAUC … UGGAAUUCUCGGGUGUCAAGG
AGUCCUGUGCUACACAUCGUAUGUACCGAAUCGGGUUUUUGGGUUUUUGGGUUUUUGGAAAGUAUUAUGUUACGCCGUUCGGAUCUGCAC: -1.26
GUCCUGUGCUACACAUCGUAUGUACCGAAUCGGGGAAAAAGGGGUUUGGGGAAAGGGGAAAGUAUUAUGUUACGCCGUUCGGAUCUGCAC: -1.3
AGUCCUGUGCUACACAUCGUAUGUACCGAAUCGGGGCCCCCGGGCCCCCGGCCCCCGGAAAGUAUUAUGUUACGCCGUUCGGAUCUGCAC: -2.68
GGUGUUGCUGGAAGAAGCCAAGGAUUUGCUCUCUGACUGGCUGGAUUCUACACUUGGCUGUGAUGUCACUGACAAUUCCAUCUUCUCCAA: -1.18
UUCCUCAAGUCCUGUGCUACACAUCGUAUGUACCGAAUCGGAGGAGGGAGGAAAGUAUUAUGUUACGCCGUUCGGAUCUGCACUUCCAGC: -2.21
UGGGAGGUGGAUUUUGUUUAUUUUUUUAGCUCAUUUCCAGGGGUGGGAAUUUUUUUUUAAUAUGUGUCAUGAAUAAAGUUGUUGUUGAAA: 0.285
UAACUUUAGAGGAGGAUCUGAUGGAUAUGGCAGUGGACGUGGAUUUGGGGAUGGCCAUAAUGGGUAUGGAGGAGGACCUGGAGGUGGCAA: -0.372
GUCCUGUGCUACACAUCGUAUGUACCGAAUCGGUUUUUGGAAAAAAAGGUUUUUUUGGAAAGUAUUAUGUUACGCCGUUCGGAUCUGCAC: -2.77

Excerpt of the above (study 3):
F66Q: 5.19%
I12Q: -4.41%
H16Y: 1.21%
